Measured values collected from several papers.
± gives the spread as reported.

CCCC[C@H]1C(=O)N(C)[C@@H](CCCC)C(=O)N[C@@H](CCCNC(=O)CN2CCN(CC(=O)O)CCN(CC(=O)O)CCN(CC(=O)O)CC2)C(=O)N[C@H](C(=O)NCC(N)=O)CSCC(=O)N[C@@H](Cc2ccc(O)cc2)C(=O)N(C)[C@@H](C)C(=O)N[C@@H](CC(N)=O)C(=O)N2CCC[C@H]2C(=O)N[C@@H](Cc2c[nH]cn2)C(=O)N[C@@H](CC(C)C)C(=O)N(C)CC(=O)N[C@@H](Cc2c[nH]c3ccccc23)C(=O)N[C@@H](CO)C(=O)N[C@@H](Cc2c[nH]c3ccccc23)C(=O)N1C [gallium-68 labelled]  tissue-to-tissue ratio (NOD/SCID mice, CHO-hPD-L1 xenograft, tumour over blood; iv, dose not given, 120 min; reference: tumour over blood): 2.61 ± 0.78
COc1cc(NC(=O)C(=O)c2c(C)n(Cc3ccc(Cl)cc3)c3ccc(C)cc23)ccn1  Vz (male cynomolgus monkey, plasma; intravenous, 1 mg/kg): 11.2 L/kg
CCCCCCCCCCCCC(=O)O.O=C1CCCC2C3CCCN4CCCC(CN12)C34 (centres unmarked)  critical aggregation concentration (water; concentration not given, 313.15 K): 0.001 mol/kg
CCCCCCCCCCCC(=O)N=C(N)NCCC[C@H](NC(=O)[C@H](CC(C)C)NC(=O)[C@@H](CC(C)C)NC(=O)[C@H](Cc1ccc(O)cc1)NC(=O)[C@H](CO)NC(=O)[C@H](Cc1c[nH]c2ccccc12)NC(=O)[C@H](Cc1c[nH]cn1)NC(=O)[C@@H]1CCC(=O)N1)C(=O)N1CCC[C@H]1C(=O)NCC  conversion to leucine (human plasma; 21 days, pH 7.4, 37 °C): 95.5 ± 6.09%
COc1ccc([N+]#[C][Re]2(=[C]=O)(=[C]=O)(=[C]=O)[N]3C(C)=CC=c4ccc5c(c43)[N]2C(C)=CC=5)cc1.O=S(=O)([O-])C(F)(F)F  emission maximum (PBS, up to 1% DMSO; pH 7.4, air-equilibrated): 506 nm
CSCC[C@@H]1NC(=O)[C@@H]2CSSC[C@H](NC(=O)[C@H](CO)NC(=O)[C@H](C)N)C(=O)N[C@@H](CCCNC(=N)N)C(=O)N[C@@H]([C@@H](C)O)C(=O)N3CCC[C@H]3C(=O)N[C@@H](CCCCN)C(=O)N[C@@H](CC(=O)O)C(=O)N[C@H]3CSSC[C@H](NC(=O)[C@H](CCCCN)NC(=O)[C@H](CCCNC(=N)N)NC(=O)[C@H](CC(N)=O)NC1=O)C(=O)N[C@@H](CCCCN)C(=O)N[C@H]1CSSC[C@H](NC(=O)[C@@H]4CCCN4C(=O)[C@H](CC(=O)O)NC(=O)[C@H](C)NC3=O)C(=O)N[C@@H](C)C(=O)N[C@@H](CCCCN)C(=O)N[C@@H](CCC(=O)O)C(=O)N[C@@H]([C@@H](C)O)C(=O)NCC(=O)N[C@@H](CSSC[C@@H](C(N)=O)NC(=O)[C@H](CCCNC(=N)N)NC(=O)[C@H](CC(N)=O)NC1=O)C(=O)N1CCC[C@H]1C(=O)N[C@@H](Cc1ccc(O)cc1)C(=O)NCC(=O)N[C@@H](CCCCN)C(=O)N2  ALT (DA rat, pristane-induced arthritis, serum; subcutaneous, 0.1 mg/kg every other day, end of 21-day trial): 51.4 U/L
COC(=O)C[C@](O)(CCCC(C)(C)OC(C)=O)C(=O)O[C@@H]1C(OC)=C[C@]23CCCN2CCc2cc4c(cc2[C@H]13)OCO4  concentration (CD1 mouse, esophagus; subcutaneous, 1 mg/kg, 24 h): not detected
CC(=CCC(O)C(C)=Cc1csc(C)n1)CC=CC(C)C(O)C(C)C(=O)C(C)(C)C(O)CC(=O)O (centres unmarked)  AUC (human, plasma; intravenous infusion, 20.0 mg/m2 KOS-1584, 3 h infusion, cycle 1): 233 ± 156 ng·h/mL
CC[C@H](C)[C@H](NC(=O)[C@H](CC(C)C)NC(=O)CNC(=O)[C@H](Cc1c[nH]cn1)NC(=O)[C@@H](NC(=O)[C@H](Cc1c[nH]c2ccccc12)NC(=O)[C@H](CCCCN)NC(=O)CNC(=O)[C@@H](NC(=O)[C@H](Cc1c[nH]cn1)NC(=O)[C@H](Cc1c[nH]cn1)NC(=O)[C@@H](NC(=O)CNC(=O)[C@H](Cc1c[nH]cn1)NC(=O)[C@H](Cc1ccccc1)NC(=O)[C@H](CC(C)C)NC(=O)[C@H](CC(C)C)NC(=O)CNC(=O)[C@H](CC(C)C)NC(=O)[C@@H](N)Cc1ccccc1)C(C)C)C(C)C)[C@@H](C)CC)C(=O)N[C@@H](Cc1c[nH]cn1)C(=O)NCC(=O)N[C@@H](Cc1c[nH]cn1)C(=O)N[C@@H](Cc1c[nH]cn1)C(N)=O  acute toxic concentration (zebrafish embryos; 1 h, 4, 28, 52 hpf): 5 µg/mL
CCNc1cc2[o+]c3cc(NCC)c(C)cc3c(-c3ccccc3C(=O)OCCOCC[18F])c2cc1C  tissue uptake (rat, spleen; 15 min): 3.16 ± 1.3 %ID/g
COC[C@@H](NC(C)=O)C(=O)NCc1ccc(-c2cccc(Cl)c2)cc1  protective index (MES seizure; Sprague-Dawley rat male; oral; reference: TD50 over ED50): > 91
COc1ccc(CNc2nc(N3CCC[C@H]3CO)ncc2C(=O)NN)cc1Cl  revertant count (Salmonella typhimurium; TA100; 62.5 µg/plate, 48 h): 143 ± 22
O=C(O)CCC(NP(=O)(O)OCCC[C@@H](NC(=O)CCC(NC(=O)CCCCCNC(=O)CCCCCNC(=O)c1ccc([18F])cc1)C(=O)O)C(=O)O)C(=O)O (some centres unmarked)  tracer uptake (CWR22Rv1 tumour model; host not given, liver; intravenous, 2 h, tumour-bearing): 0.25 %ID/g
CC1N=C(c2ccccc2F)c2cc(Br)ccc2-n2cnc(C(=O)OC3OC(CO)C(O)C(O)C3O)c21 (centres unmarked)  cumulative excretion (LC-MS/MS; Swiss Webster mouse, female, urine; oral, 750 µg parent drug, 24 to 48 h): 0.3 ± 0.3%
CCN(CCCCOc1ccc(CCC(=O)N2CCC(Cc3ccccc3)CC2)cc1OC)Cc1ccccc1  cumulative excretion (Sprague-Dawley rat, faeces and urine; oral, 25 mg/kg, 48 h; reference: dose): 1.46%
CC[C@H](C)C(=O)N1CCC(NC(=O)Nc2ccc(OC(F)(F)F)c(F)c2)CC1  subjects with related TEAE (healthy volunteers; oral, 8 mg single dose): 0%
CCC(=O)N(C)c1ccc(Cl)c(Cl)c1  revertants (Escherichia coli; Ames test; WP2 uvrA; 1.00 mg/plate, with rat liver S9): 31 ± 1.7 revertants/plate
[11CH3]n1c(=O)n(CCCO)c(=O)c2c1nc(Oc1cccc(OC(F)(F)F)c1)n2Cc1ccc(Cl)cc1  tracer uptake (ex vivo biodistribution; Sprague Dawley rat, fat; 60 min post injection): 0.86 ± 0.23 %ID/g
CC(C)[C@H](NC(=O)CNC(=O)[C@H](CCC(N)=O)NC(=O)[C@H](C)N)C(=O)O  probably related adverse events (human; single dose, 10 mg/kg): 0%
O=C(O)CCC(NP(=O)(O)OCCC[C@@H](NC(=O)CCC(NC(=O)c1ccc([18F])cc1)C(=O)O)C(=O)O)C(=O)O (some centres unmarked)  tracer uptake (CWR22Rv1 tumour model; host not given, muscle; intravenous, 2 h, tumour-bearing): 0.19 %ID/g
CC[C@H](C)[C@H](NC(=O)[C@H](C)NC(=O)CNC(=O)[C@H](Cc1ccccc1)NC(=O)[C@H](CC(N)=O)NC(=O)[C@H](CC(N)=O)NC(=O)[C@H](CO)NC(=O)[C@H](CO)NC(=O)[C@H](Cc1c[nH]cn1)NC(=O)[C@@H](NC(=O)[C@H](CC(C)C)NC(=O)[C@H](Cc1ccccc1)NC(=O)[C@H](CC(N)=O)NC(=O)[C@H](C)NC(=O)[C@H](CC(C)C)NC(=O)[C@H](CCCNC(=N)N)NC(=O)[C@H](CCC(N)=O)NC(=O)[C@@H](NC(=O)[C@H](C)NC(=O)[C@@H]1CSSC[C@H](NC(=O)[C@@H](N)CCCCN)C(=O)N[C@@H](CC(N)=O)C(=O)N[C@@H]([C@@H](C)O)C(=O)N[C@@H](C)C(=O)N[C@@H]([C@@H](C)O)C(=O)N1)[C@@H](C)O)C(C)C)C(=O)N[C@@H](CC(C)C)C(=O)N[C@@H](CO)C(=O)N[C@@H](CO)C(=O)N[C@H](C(=O)N[C@@H](CC(N)=O)C(=O)N[C@H](C(=O)NCC(=O)N[C@@H](CO)C(=O)N[C@@H](CC(N)=O)C(=O)N[C@H](C(=O)N[C@@H](Cc1ccc(O)cc1)C(N)=O)[C@@H](C)O)C(C)C)[C@@H](C)O  critical temperature (4 µM, pH 7.3): 10 °C
CC(=O)OC1CCC2(C)C3CC(OC(C)=O)C4(C)C(C5=CC(=O)OC5)CCC4(O)C3CCC2(N=[N+]=[N-])C1 (centres unmarked)  logD (pH 7.4): 2.71
CCN(Cc1ccccc1)C(=O)CCc1nc(CN2CCN(C(=O)Cc3ccc(OC)c(OC)c3)CC2)no1  concentration (rat, brain; intravenous, 1 mg/kg, 5 min): 7.4 ng/g
CN[C@](C)(C[18F])C(=O)O  tracer uptake (DU-145 tumour model; host not given, pancreas; 15 min, tumour-bearing): 46 %ID/g
CCCC[C@H](NC(=O)CNC(=O)CNC(=O)c1ccc(NN)nc1)C(=O)N[C@H]1CC(=O)NCCCC[C@@H](C(N)=O)NC(=O)[C@H](Cc2c[nH]c3ccccc23)NC(=O)[C@H](CCCNC(=N)N)NC(=O)[C@@H](Cc2ccccc2)NC(=O)[C@H](Cc2c[nH]cn2)NC1=O [technetium-99m labelled]  tissue uptake ratio (C57 mouse, B16/F1 melanoma-bearing; intravenous, 4 h; reference: tumour over blood): 110
C=Cc1c(C)c2cc3nc(c(CC(=O)O)c4[nH]c(cc5nc(cc1[nH]2)C(C)=C5CC)c(C)c4C(=O)O)[C@@H](CCC(=O)NCCCC[C@H](NC(C)=O)C(=O)N[C@@H](Cc1ccccc1)C(=O)N[C@@H](Cc1ccccc1)C(=O)N[C@H](C(=O)N[C@@H](CC(C)C)C(=O)N[C@@H](CCCCN)C(=O)N[C@@H](CO)C(=O)NCC(=O)N[C@@H](CCC(N)=O)C(=O)N[C@@H](Cc1ccc(O)cc1)C(=O)N[C@@H](C)C(=O)N[C@@H](CO)C(=O)N[C@@H](Cc1ccc(O)cc1)C(=O)N[C@@H](Cc1c[nH]cn1)C(=O)N[C@@H](CS)C(=O)N[C@@H](Cc1c[nH]c2ccccc12)C(=O)N[C@@H](CS)C(=O)N[C@@H](Cc1c[nH]c2ccccc12)C(=O)N[C@@H](CCCNC(=N)N)C(=O)N[C@@H](CC(=O)O)C(=O)N1CCC[C@H]1C(=O)NCC(=O)N[C@@H](CCCNC(=N)N)C(=O)N[C@@H](CO)C(=O)NCC(=O)NCC(=O)N[C@@H](CO)C(=O)N[C@@H](CCCCN)C(N)=O)C(C)C)[C@@H]3C  half-life alpha (tumour-free mice, plasma; iv, 13 mg/kg): 2.54 h
CC(C)C[C@@H](N)C(=O)NCC(=O)N[C@H](C)C(=O)N[C@H](CO)C(=O)N[C@H](Cc1c[nH]c2ccccc12)C(=O)N[C@H](Cc1c[nH]cn1)C(=O)N[C@H](CCCNC(=N)N)C(=O)N1CCC[C@@H]1C(=O)N[C@H](CC(=O)O)C(=O)N[C@H](CCCCN)C(=O)N[C@H](CS)C(=O)N[C@H](CS)C(=O)N[C@H](CC(C)C)C(=O)NCC(=O)N[C@H](Cc1ccc(O)cc1)C(=O)N[C@H](CCC(N)=O)C(=O)N[C@H](CCCCN)C(=O)N[C@H](CCCNC(=N)N)C(=O)N1CCC[C@@H]1C(=O)N[C@H](CC(C)C)C(=O)N1CCC[C@@H]1C(N)=O  measured concentration (LC-MS/MS; rat plasma; 25 ng/mL, -80 to 25 °C, 3 freeze-thaw cycles): 22.9 ± 2.3 ng/mL
C[C@@](O)(C(F)F)[C@H](NC(=O)c1ccc(C#CC#CC2CC2)cc1)C(=O)NO  Vd (dog, plasma; intravenous, 100 mg/kg): 1.1 L/kg
CC[C@@H]1C[C@]1(NC(=O)[C@@H]1C[C@@]2(CN1C(=O)[C@@H](NC(=O)[C@@H](NC(=O)[C@@H]1CCCCN1C(C)C)C1CCCCC1)C(C)(C)C)C(C)(C)C21CCC1)C(=O)NS(=O)(=O)N1CCCC1  fold increase in Cmax (human; oral, 50 mg, added: ritonavir; reference: without ritonavir): ~10 fold

Excerpt of the above:
COC[C@@H](NC(C)=O)C(=O)NCc1ccc(-c2cccc(Cl)c2)cc1  protective index (MES seizure; Sprague-Dawley rat male; oral; reference: TD50 over ED50): > 91
COc1ccc(CNc2nc(N3CCC[C@H]3CO)ncc2C(=O)NN)cc1Cl  revertant count (Salmonella typhimurium; TA100; 62.5 µg/plate, 48 h): 143 ± 22
O=C(O)CCC(NP(=O)(O)OCCC[C@@H](NC(=O)CCC(NC(=O)CCCCCNC(=O)CCCCCNC(=O)c1ccc([18F])cc1)C(=O)O)C(=O)O)C(=O)O (some centres unmarked)  tracer uptake (CWR22Rv1 tumour model; host not given, liver; intravenous, 2 h, tumour-bearing): 0.25 %ID/g
CC1N=C(c2ccccc2F)c2cc(Br)ccc2-n2cnc(C(=O)OC3OC(CO)C(O)C(O)C3O)c21 (centres unmarked)  cumulative excretion (LC-MS/MS; Swiss Webster mouse, female, urine; oral, 750 µg parent drug, 24 to 48 h): 0.3 ± 0.3%
